Assay results pooled from the literature.
Numbered parts are unrelated; each lists some results of a single study.
Chain of UniProt P00519 (whole entry, unmodified, looked up): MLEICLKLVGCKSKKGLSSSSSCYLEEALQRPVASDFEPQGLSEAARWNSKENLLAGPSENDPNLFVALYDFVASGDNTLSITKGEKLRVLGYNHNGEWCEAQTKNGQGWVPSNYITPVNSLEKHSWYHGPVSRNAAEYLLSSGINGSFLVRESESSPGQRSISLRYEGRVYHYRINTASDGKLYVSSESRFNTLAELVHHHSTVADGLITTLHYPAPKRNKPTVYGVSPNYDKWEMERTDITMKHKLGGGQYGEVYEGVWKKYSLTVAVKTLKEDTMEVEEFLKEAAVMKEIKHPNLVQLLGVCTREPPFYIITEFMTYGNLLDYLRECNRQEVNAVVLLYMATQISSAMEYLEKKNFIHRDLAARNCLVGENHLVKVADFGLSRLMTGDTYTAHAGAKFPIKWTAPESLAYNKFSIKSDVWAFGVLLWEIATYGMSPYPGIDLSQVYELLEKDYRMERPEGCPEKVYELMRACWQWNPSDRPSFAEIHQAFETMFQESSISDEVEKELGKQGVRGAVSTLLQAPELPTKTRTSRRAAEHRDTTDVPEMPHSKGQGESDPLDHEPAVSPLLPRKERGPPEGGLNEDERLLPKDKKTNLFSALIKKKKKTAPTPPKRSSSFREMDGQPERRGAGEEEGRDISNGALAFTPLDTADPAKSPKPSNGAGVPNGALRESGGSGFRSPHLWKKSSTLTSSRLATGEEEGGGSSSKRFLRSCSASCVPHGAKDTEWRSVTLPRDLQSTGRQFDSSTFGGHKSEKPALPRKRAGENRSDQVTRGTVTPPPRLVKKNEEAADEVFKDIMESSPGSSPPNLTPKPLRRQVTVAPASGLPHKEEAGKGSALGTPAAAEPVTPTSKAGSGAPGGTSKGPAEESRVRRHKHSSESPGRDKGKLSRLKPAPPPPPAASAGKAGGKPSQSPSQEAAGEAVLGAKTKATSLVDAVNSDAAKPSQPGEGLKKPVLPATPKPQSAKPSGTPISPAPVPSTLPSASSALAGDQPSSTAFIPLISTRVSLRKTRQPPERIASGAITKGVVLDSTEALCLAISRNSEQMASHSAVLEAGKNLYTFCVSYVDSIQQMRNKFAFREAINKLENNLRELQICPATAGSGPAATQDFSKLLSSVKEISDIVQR
Chain of UniProt Q8TDX7 (whole entry, looked up): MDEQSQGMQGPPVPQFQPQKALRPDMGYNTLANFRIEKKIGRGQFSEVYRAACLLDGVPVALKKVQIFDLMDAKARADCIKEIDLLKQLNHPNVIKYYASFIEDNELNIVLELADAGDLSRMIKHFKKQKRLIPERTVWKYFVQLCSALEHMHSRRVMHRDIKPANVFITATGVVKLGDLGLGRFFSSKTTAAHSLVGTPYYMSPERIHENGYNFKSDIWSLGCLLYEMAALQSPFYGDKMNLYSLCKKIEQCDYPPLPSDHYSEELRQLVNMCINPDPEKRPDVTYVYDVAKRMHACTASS
Chain of UniProt Q02750 (whole entry, looked up): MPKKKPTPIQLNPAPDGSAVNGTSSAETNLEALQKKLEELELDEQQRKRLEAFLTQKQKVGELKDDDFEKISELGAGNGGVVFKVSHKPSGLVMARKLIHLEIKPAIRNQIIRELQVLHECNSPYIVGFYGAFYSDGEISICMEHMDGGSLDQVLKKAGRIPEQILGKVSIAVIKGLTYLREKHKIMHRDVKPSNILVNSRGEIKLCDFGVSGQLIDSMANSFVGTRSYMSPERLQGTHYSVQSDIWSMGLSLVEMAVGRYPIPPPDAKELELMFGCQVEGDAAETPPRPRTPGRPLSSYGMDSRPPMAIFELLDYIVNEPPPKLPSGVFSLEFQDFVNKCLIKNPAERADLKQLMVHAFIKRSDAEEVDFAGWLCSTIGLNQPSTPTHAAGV
Chain of UniProt Q5BJF2 (whole entry, looked up): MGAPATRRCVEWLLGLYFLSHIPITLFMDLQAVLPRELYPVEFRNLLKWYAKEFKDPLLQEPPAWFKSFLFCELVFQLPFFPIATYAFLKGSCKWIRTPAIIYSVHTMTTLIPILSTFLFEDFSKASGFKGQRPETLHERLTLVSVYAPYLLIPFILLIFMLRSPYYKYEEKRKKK
Chain of UniProt O75676 (whole entry, looked up): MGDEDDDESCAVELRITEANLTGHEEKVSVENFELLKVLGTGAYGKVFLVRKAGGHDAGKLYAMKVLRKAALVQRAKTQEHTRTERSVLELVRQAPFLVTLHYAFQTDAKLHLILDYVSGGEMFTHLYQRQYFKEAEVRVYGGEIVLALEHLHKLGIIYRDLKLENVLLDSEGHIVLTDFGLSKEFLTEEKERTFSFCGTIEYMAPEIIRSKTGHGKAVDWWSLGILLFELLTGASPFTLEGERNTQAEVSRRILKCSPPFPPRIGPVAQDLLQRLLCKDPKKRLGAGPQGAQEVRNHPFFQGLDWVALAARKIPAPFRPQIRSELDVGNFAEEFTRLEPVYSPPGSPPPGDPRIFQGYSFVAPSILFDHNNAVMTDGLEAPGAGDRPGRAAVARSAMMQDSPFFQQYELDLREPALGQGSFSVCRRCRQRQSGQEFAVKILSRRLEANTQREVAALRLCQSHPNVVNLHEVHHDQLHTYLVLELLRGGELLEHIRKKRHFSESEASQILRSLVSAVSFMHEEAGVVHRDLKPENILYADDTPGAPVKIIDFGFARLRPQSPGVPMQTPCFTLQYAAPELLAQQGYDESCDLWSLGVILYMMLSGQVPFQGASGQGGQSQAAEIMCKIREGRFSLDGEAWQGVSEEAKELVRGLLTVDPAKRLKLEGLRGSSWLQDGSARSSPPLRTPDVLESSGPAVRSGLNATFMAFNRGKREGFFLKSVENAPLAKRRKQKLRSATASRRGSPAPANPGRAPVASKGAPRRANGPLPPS
Chain of UniProt P06241 (whole entry, looked up): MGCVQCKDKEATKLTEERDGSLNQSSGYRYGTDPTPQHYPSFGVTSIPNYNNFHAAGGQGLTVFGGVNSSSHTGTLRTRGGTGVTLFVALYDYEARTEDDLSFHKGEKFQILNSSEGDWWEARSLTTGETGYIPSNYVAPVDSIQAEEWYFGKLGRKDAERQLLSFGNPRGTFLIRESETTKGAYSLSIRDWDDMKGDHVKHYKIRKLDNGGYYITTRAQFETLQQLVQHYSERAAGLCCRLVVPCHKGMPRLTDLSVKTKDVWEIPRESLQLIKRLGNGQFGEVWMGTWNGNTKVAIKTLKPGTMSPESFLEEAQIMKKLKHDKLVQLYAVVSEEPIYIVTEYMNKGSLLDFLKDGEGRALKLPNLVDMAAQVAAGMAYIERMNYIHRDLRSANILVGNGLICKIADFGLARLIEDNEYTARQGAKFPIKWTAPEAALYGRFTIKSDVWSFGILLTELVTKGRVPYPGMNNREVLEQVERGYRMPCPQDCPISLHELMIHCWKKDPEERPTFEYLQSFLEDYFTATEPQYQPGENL
Chain of UniProt Q15418 (whole entry, looked up): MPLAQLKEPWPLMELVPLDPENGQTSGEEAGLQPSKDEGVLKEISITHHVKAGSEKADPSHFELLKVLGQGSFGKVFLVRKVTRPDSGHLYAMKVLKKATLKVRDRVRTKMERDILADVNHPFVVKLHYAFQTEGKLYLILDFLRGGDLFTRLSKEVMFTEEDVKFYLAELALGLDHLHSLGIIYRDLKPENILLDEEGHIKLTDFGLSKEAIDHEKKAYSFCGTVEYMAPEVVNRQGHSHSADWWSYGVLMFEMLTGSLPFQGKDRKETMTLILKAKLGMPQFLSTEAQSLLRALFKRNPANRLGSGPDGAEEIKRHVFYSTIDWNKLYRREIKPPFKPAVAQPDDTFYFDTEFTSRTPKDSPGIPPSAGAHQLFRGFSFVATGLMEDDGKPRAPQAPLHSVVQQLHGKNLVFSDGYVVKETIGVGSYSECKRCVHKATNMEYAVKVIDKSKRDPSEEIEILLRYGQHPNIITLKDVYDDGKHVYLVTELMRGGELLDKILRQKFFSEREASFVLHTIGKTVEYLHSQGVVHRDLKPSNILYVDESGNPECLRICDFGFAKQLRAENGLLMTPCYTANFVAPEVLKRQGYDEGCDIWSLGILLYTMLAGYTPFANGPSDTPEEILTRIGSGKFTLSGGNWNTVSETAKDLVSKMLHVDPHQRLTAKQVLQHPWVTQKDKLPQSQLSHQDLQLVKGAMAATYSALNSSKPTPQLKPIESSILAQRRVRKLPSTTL
Chain of UniProt O15264 (whole entry, looked up): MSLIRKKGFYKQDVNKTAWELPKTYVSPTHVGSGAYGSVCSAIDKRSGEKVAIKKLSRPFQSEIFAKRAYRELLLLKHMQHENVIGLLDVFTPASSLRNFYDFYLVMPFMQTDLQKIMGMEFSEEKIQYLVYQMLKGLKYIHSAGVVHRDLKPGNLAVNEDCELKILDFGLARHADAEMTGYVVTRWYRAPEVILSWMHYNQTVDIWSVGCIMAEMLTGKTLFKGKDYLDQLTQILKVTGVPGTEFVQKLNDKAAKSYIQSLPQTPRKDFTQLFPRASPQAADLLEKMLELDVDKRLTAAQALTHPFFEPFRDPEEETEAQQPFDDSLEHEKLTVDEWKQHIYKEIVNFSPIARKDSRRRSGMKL

Block 1 — action: inhibitor; concentration: 1 µM
SMILES: C=CC(=O)N1CCC([C@@H]2CCNc3c(C(N)=O)c(-c4ccc(Oc5ccccc5)cc4)nn32)CC1
target	test	inhibition [%]
Ribosomal protein S6 kinase alpha-1, kinase domain 1 (RPS6KA1, Homo sapiens, UniProt Q15418)	–	21
Serine/threonine-protein kinase Nek7 (NEK7, Homo sapiens, UniProt Q8TDX7)	enzyme activity	9
Tyrosine-protein kinase ABL1, phosphorylated (ABL1, Homo sapiens, UniProt P00519)	enzyme activity	0
Phosphorylase b kinase gamma catalytic chain, skeletal muscle/heart isoform (PHKG1, Homo sapiens, UniProt Q16816)	enzyme activity	0
Tyrosine-protein kinase Fyn (FYN, Homo sapiens, UniProt P06241)	enzyme activity	53
Dual specificity mitogen-activated protein kinase kinase 1 (MAP2K1, Homo sapiens, UniProt Q02750)	enzyme activity	100
Mitogen-activated protein kinase 13 (MAPK13, Homo sapiens, UniProt O15264)	enzyme activity	0
Ribosomal protein S6 kinase alpha-4, C-terminal kinase domain (RPS6KA4, Homo sapiens, UniProt O75676)	–	20
Serine/threonine-protein kinase MRCK beta (CDC42BPB, Homo sapiens, UniProt Q9Y5S2)	enzyme activity	0
Mitogen-activated protein kinase kinase kinase 5 (MAP3K5, Homo sapiens, UniProt Q99683)	enzyme activity	10

Block 2 — read-out: enzyme activity; action: inhibitor; concentration: 0.5 µM; reference: control
Target: Tyrosine-protein kinase Yes (YES1, Homo sapiens, UniProt P07947)
Chain of UniProt P07947 (whole entry, looked up): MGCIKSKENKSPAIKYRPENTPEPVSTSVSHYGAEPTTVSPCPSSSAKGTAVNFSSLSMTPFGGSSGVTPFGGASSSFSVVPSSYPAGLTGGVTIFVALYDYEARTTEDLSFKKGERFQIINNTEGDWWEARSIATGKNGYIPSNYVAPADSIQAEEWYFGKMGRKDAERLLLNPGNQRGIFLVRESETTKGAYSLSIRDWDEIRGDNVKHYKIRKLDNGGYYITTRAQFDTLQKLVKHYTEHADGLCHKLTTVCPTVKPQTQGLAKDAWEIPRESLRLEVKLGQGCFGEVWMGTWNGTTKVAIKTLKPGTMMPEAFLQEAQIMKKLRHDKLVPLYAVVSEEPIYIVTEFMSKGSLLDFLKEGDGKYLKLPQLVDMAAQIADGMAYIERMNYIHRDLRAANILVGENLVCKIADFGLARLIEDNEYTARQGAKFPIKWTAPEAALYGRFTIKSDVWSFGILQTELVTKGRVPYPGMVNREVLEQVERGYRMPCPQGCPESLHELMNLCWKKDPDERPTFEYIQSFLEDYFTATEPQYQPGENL
Structure (SMILES)	remaining activity
Nc1nc(Nc2ccc(S(N)(=O)=O)cc2)nn1C(=S)Nc1c(F)cccc1F	10.5%
NC(=O)c1cccc(-c2cc(Nc3ccc(OC(F)(F)F)cc3)ncn2)c1	87.4%
FC(F)(F)c1ccc(/C=C/c2nc(COc3ccc(CCCCn4ccnn4)cc3)co2)cc1	85%
COc1cc2c(N3CCN(C(=O)Nc4ccc(OC(C)C)cc4)CC3)ncnc2cc1OCCCN1CCCCC1	86.6%
c1cc(-c2cnn3cc(-c4ccc(OCCN5CCCCC5)cc4)cnc23)ccn1	15.9%
CNc1cc2c(Nc3cccc(Br)c3)ncnc2cn1	74.7%
C[C@@H](N)[C@H]1CC[C@H](C(=O)Nc2ccncc2)CC1	98.3%
N#CC(c1ccnc(NCCc2cccnc2)n1)c1nc2ccccc2s1 (stereo not drawn)	89.1%
Clc1ccc(Nc2nnc(Cc3ccncc3)c3ccccc23)cc1	93%
CC(C)(C)c1nc2c3cc[nH]c(=O)c3c3cc(F)ccc3c2[nH]1	76.1%

Block 3 — host: human; medium: microsomes or S9; concentration: 2 µM; time: 0.5 h
Structure (SMILES)	remaining compound [%]
CC1CCC(N(Cc2nnc(C3CCC3)n2C)CC2CCCO2)CC1 (stereo not drawn)	38.6
CN1CCCn2nc(C(=O)N(C)Cc3cc4cc(F)ccc4[nH]3)cc2C1	45.7
Cc1ccccc1C1CC(=O)c2c(C)nc(N)nc2C1 (stereo not drawn)	56.8
Cc1ccc(C/N=C2\C(c3ccc(F)c(F)c3)=Nc3ncnn32)cc1	> 99.9
CC(=O)Nc1cc2ccc(OC(C)=O)cc2oc1=O	5.4
N#Cc1ncc(Br)cc1NC(=O)C(F)(F)F	> 99
CC(=O)c1ccc(C(=O)NOCC(C)NC(=O)OC(C)(C)C)cc1 (stereo not drawn)	84.8
Cn1ccnc1/C=N/Nc1nncc2ccccc12	22.5
O=C1OC2(CCCN(C(=O)Cc3cccc4ccccc34)C2)c2ccccc21 (stereo not drawn)	1.26
Cc1nc(-c2ccccc2)nc2sc3c(=O)[nH]cnc3c12	24.1
CCOc1ccc(-c2nnc3c4cc(OC)c(OC)cc4n(Cc4ccc(Cl)cc4)cc2-3)cc1	> 99.9

Further values, each from its own experiment
Structure (SMILES)	target	test	setting	how to read	measurement	result
COc1ccc2c(c1)O[C@H](c1ccc(OC)c(OC)c1)C[C@@H]2NC(=O)C1(c2ccc3c(c2)OC(F)(F)O3)CC1 (single isomer, unassigned)	Tyrosine-protein kinase ABL1 (ABL1, Homo sapiens, UniProt P00519, F317I)	KINOMEscan	1 µM, F317I mutant, nonphosphorylated	reference: control	remaining binding	93%
Cn1c(-c2csc(C3CCN(Cc4nc5ncccc5[nH]4)CC3)n2)nc2ccccc21	Sigma intracellular receptor 2 (TMEM97, Homo sapiens, UniProt Q5BJF2)	binding	–	–	Ki	152 nM

Excerpt of the above (block 3):
Structure (SMILES)	remaining compound [%]
Cc1ccccc1C1CC(=O)c2c(C)nc(N)nc2C1 (stereo not drawn)	56.8
CN1CCCn2nc(C(=O)N(C)Cc3cc4cc(F)ccc4[nH]3)cc2C1	45.7
CC1CCC(N(Cc2nnc(C3CCC3)n2C)CC2CCCO2)CC1 (stereo not drawn)	38.6
Cn1ccnc1/C=N/Nc1nncc2ccccc12	22.5
Cc1ccc(C/N=C2\C(c3ccc(F)c(F)c3)=Nc3ncnn32)cc1	> 99.9
